Experimental data pooled from the literature.
A part holds a random share of what one study measured.

Sample 1
Target: Interferon regulatory factor 3, full length, phosphomimetic (IRF3, Homo sapiens, UniProt Q14653, residues 1-427, S386D/S396D/S398D/S402D/T404D/S405D)
Sequence of UniProt Q14653 (whole entry, unmodified, looked up): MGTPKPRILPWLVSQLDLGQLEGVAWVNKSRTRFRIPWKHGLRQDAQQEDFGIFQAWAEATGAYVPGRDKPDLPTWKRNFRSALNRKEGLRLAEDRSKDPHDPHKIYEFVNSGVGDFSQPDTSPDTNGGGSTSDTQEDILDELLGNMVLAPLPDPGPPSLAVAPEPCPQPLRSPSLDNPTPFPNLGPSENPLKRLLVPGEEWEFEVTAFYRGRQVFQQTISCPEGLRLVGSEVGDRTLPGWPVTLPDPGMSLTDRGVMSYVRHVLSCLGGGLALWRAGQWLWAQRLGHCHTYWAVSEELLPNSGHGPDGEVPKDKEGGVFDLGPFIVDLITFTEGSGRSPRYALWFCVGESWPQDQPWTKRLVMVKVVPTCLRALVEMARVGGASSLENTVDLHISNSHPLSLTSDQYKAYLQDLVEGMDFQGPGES
Technique: protein-binding microarray
Form: double-stranded DNA, one strand shown
Sample: in vitro
Concentration: 2540 nM top
Notes: 60-bp whole probe
With: salmon DNA 0.4 mg/ml
Relative to: random background probes
Reading: higher = stronger binding
All sequences stand within: GCCTAGCAC … GTCTTGATTCGCTTGACGCTGCTG
Under “fitted relative affinity”, `GGCGATATCAGTTTCGAGACGTGCTAG` is recorded as 3.53 z-score.
`TTAGGACTGCTTCTTCTTTAGTGCTAG` — result for “fitted relative affinity”: -0.15 z-score.
`AGTATTACCTCATCTTTCCCTGTGCTA`: “fitted relative affinity” 0.924 z-score.
Under “fitted relative affinity”, `TCTCTTCTGCTTCCTCAGGACGTGCTA` is recorded as 0.807 z-score.
For `TCAGTTTTCTTTTCCATACTGTGCTAG`, “fitted relative affinity” read 7.05 z-score.
`TCATTCATGAAATTTTAGACTGTGCTA`: “fitted relative affinity” 0.332 z-score.
`GACGCTTTCAGTATCGAGACGTGCTAG`: “fitted relative affinity” 2.39 z-score.
Under “fitted relative affinity”, `TTAGGTCTCGGTCACGGTTAGTGCTAG` is recorded as -0.388 z-score.
For `TCATCTTCACATATAATACTGTGCTAG`, “fitted relative affinity” read 1.55 z-score.
Under “fitted relative affinity”, `TTAGGTTTCGGTTCCGGTTCGTGCTAG` is recorded as 10.3 z-score.
`TTTGGTTTCCTTTTCCTTTAGTGCTAG`: “fitted relative affinity” 13.2 z-score.
`TCAGGTATCCTTCTCCTTTAGTGCTAG`: “fitted relative affinity” 7.44 z-score.
For `TTAGACTTCAGTTCCGATTAGTGCTAG`, “fitted relative affinity” read 1.12 z-score.
`TATGTTGTCCAGGCTGGTCTCGTGCTA`: “fitted relative affinity” -0.415 z-score.
`GACGATTTCAGTTCCGATACGTGCTAG`: “fitted relative affinity” 3.62 z-score.
`TTAGATCTCAGTATAGATTAGTGCTAG`: “fitted relative affinity” 0.176 z-score.
`TTAGATTTCAGAATGGATTAGTGCTAG`: “fitted relative affinity” 1.61 z-score.
Under “fitted relative affinity”, `GACGATCTCAGTCTCAAGACGTGCTAG` is recorded as 0.826 z-score.
Under “fitted relative affinity”, `TCCTATATCTGAACCGCAGAGTGCTAG` is recorded as 1.15 z-score.
Under “fitted relative affinity”, `GACGATATCGGCTATCGAGACGTGCTA` is recorded as -0.144 z-score.
Under “fitted relative affinity”, `GACGATATCAGTTTCGACACGTGCTAG` is recorded as 3.33 z-score.
`GACGAACTGGGTATCGAGACGTGCTAG` — result for “fitted relative affinity”: -0.0438 z-score.
Under “fitted relative affinity”, `GACGGTATCGGTTTCGGTACGTGCTAG` is recorded as 8.71 z-score.

Sample 2
Target: RING finger protein unkempt homolog, zinc fingers 1-6, GST-SBP tag (UNK, Homo sapiens, UniProt Q9C0B0, residues 30-357)
Sequence of UniProt Q9C0B0 (30-357, looked up): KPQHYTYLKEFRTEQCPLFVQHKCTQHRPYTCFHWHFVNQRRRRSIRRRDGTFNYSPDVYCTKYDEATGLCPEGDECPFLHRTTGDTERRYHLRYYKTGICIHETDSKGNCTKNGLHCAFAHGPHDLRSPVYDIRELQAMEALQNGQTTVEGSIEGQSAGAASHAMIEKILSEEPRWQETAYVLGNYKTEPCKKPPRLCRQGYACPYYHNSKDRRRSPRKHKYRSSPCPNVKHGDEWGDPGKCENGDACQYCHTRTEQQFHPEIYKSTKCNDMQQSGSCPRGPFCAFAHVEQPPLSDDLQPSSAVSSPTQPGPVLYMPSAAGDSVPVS
Technique: RNA Bind-n-Seq
Form: RNA
Sample: in vitro
Concentration: not given
Notes: RNA with constant flanks, human and mouse sites, ends assumed
Relative to: input RNA pool
Reading: higher = stronger binding
`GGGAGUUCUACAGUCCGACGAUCGGAAGUGCUGCAUGGCAGGAACACUUGAAACAGAACAAAACUCUAGUCCACGUUAAACGCUGGUUUGGCUUUCUUGAGGCCCAGCAGGCCUUCCGCUCAGUUGGCACCAAGUGGGAUGUUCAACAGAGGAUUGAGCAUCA` gave a bound/input enrichment of 0.3 ratio.
The bound/input enrichment of `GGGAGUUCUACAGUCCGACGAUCUUUUGUCUAGAAUGUUUGAGCUUAAACUGAAAGCCAUGGAACUAAGCACCUUUGGGCUGUCUUGUUGGGCCUAAGCUGCAGAGGAGGACUGACUGAGAAAGCUGCCUUGUCUAUAAAGACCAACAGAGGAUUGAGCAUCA` is reported as 0.177 ratio.
With `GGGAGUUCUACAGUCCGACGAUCUGUUUUUAAGGGAAAUGAAUAGAAACAAUCCACUUUGAAGAAGCCAUGGCGAAAUCAAAGACAAAACAUAGACUUUGUUCUCAGGAAUCUUCAGUAUCUGCCCUGCUGGCAAGCUGCACCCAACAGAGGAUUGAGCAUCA` the bound/input enrichment was 0.421 ratio.
`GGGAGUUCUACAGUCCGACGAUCCUCCUCUACAGAGCCACAAUGGCUCUGACGCUUGGUGGCACAGCCUAUGCCAUCUAUCUGUUAGCUAUGGCUGCAUUUCCCAAGAAGCAGAACUAAUGUCGUCAUCCCAGUCUUCACGUGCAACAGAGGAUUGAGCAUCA` has a bound/input enrichment of 0.128 ratio.
`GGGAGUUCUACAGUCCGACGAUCAUGGUGGCCUGCAGCGGCCAAGAAGCCAAAAAAAAUUUUUUUUUUUUCAGAUACUGUGCUUGAUUUUUGGAGAGGGGAGAGGUGGAAAUUCCUAAAUGGCUAAUGCACUGUUCCCUCCAGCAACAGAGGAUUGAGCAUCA` has a bound/input enrichment of 0.229 ratio.
With `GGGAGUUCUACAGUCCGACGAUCCGCACCACCAGAGGAAAGCGGAAGAGAGUUGAUGUGGAGGAGUCGGAGGCGAGCAGCAGUGUUAGCAUUUCCCACUCUGCCUCAGCCACGGGGAACGUGUGCAUUGAAGAGAUAGAUGUUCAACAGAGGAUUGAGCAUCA` the bound/input enrichment was 0.291 ratio.
`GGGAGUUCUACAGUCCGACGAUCCUCGGACCCCAGCGUCGGAAGCUGCUUUCGGGGCAUGAGCUGAGGGCACAGCUCUGAGGCUAGCAGUAUUUCUCAGAGAUUGAUGGAAACAGAAACCAAAACUCUUCCCCUGGAGAAUGCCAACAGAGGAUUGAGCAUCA` gave a bound/input enrichment of 0.151 ratio.
`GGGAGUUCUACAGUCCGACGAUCUGAAUAUUAUACUUCUUUAUUCACAGUAUCUGUGUCUCCUGCACCCUUUGGUGUUGCAAUUUUAGAUAUGUGAAAGUAGAUGUUAGCAGGGUUCUCUCCCUAUUUAAAAAAAAUACAUUACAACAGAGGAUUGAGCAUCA` has a bound/input enrichment of 3.04 ratio.
`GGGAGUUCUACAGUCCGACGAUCCAAAAUCCAGAACUUUAUAUACGGGAGAGUGUAAAAGGAUCGUUGGACAGGAAGAAGUUAGAGCAACUGUACACUAGAUACAAAGACCCUCAGGAUGAAAAUAAAAUUGGAAUAGAUGGUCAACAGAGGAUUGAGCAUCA` gave a bound/input enrichment of 3.23 ratio.
For `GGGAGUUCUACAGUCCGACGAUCAUGCACUGUCCUACUGUGCCUGAUGAAAAAAAUCAUUAUGAGAAAAGUUCUGGUUCUUCAGAAGGUCAAAGCAAAACAGAAUCUGAUUUUUCCAACCUAGACUCUGAAAAACACAAAAAACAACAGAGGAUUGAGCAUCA`, the bound/input enrichment was 0.118 ratio.
`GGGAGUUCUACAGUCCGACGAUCCAAAUUCUGAUUUUAUUUUGCAUCUUAAUUGCCAUGUCUCUUGUGUGUUCUGUGGGCUCAGCCAUUUGGAACCGAAGGCAUUCCGGGAAAGACUGGUACCUCCAUCUACACUAUGGUGGCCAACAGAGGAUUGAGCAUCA` gave a bound/input enrichment of 0.261 ratio.

Sample 3
Target: Sal-like protein 4, full length isoform B (SALL4, Homo sapiens, UniProt Q9UJQ4-2, residues 1-616)
Technique: universal PBM
Form: double-stranded DNA, one strand shown
Sample: in vitro
Concentration: not given
Notes: 8-mer, flanks averaged, mean of replicates
Reading: higher = stronger binding
Construct (chain): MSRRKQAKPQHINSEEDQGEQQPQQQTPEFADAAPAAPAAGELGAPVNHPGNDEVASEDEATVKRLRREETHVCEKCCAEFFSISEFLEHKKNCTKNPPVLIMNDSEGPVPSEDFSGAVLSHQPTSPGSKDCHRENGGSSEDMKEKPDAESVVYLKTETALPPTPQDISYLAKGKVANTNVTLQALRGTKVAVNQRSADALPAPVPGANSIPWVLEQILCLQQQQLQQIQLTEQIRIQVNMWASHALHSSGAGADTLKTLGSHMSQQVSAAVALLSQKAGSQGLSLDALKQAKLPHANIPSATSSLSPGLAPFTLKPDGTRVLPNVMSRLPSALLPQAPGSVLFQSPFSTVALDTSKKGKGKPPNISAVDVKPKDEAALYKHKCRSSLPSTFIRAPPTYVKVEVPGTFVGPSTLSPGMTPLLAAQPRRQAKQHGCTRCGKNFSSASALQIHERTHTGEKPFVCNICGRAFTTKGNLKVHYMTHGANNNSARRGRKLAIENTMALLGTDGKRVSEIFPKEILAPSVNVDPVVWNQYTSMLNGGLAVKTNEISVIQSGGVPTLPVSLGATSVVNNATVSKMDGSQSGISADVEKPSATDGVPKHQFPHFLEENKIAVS
The E-score of `ACACCGAT` is reported as -0.132.
With `ACGGGAGG` the E-score was -0.101.
`CATTAAGA` has an E-score of 0.166.
`GTAGCGTA` gave an E-score of 0.00839.
`GCTGCAAC` has an E-score of -0.149.
`AGAGACAG` has an E-score of -0.131.
The E-score of `ACTGAAGG` is reported as -0.0852.
With `GATTAGAA` the E-score was 0.111.
The E-score of `CAGTTTTC` is reported as 0.0861.
With `ATTCGAGA` the E-score was 0.0954.
With `AATAGACA` the E-score was 0.121.
With `TCACAGCA` the E-score was -0.0429.
With `GACTTTCA` the E-score was 0.0533.
`AGAAAAGG` has an E-score of 0.102.
`ACGGGGGA` gave an E-score of 0.00102.
For `GATCGCGC`, the E-score was -0.237.
For `AAATATTT`, the E-score was 0.465.
The E-score of `CGCCCAAG` is reported as -0.25.
The E-score of `ATGGCGAG` is reported as -0.0973.
For `GCCGATAA`, the E-score was 0.0526.
The E-score of `AACCCTGA` is reported as 0.0789.
`GCGCTCAC` gave an E-score of -0.251.
With `CCGTCCAC` the E-score was -0.22.
`GAGGAATA` has an E-score of 0.167.
The E-score of `AATCAGTA` is reported as 0.176.

Sample 4
Target: RNA binding protein fox-1 homolog 2, RRM domain, GST-SBP tag (RBFOX2, Homo sapiens, UniProt O43251-10, residues 100-194)
Technique: RNA Bind-n-Seq
Form: RNA
Sample: in vitro
Concentration: 365 nM
Notes: natural RNA segment, single round, ends assumed
Relative to: no-protein control
Reading: higher = stronger binding
`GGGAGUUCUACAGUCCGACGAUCAAUCUUUUACCUUUUAAACAACCAGGAUAGAGAACCUAUUGGAGUUUGCAUUGUUGAUGACAGGUUCACAAUAAAGUGACGUUCUGGUGGAGGUAGAGUGAAAUGUUUUUUGGAAUUCUCGGGUGCCAA`: “RBNS enrichment (R)” 0.416.
Under “RBNS enrichment (R)”, `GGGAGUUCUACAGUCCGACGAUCGGGUUUUGGGAGGGUGGAGGUGGGCAGACGCCCCUGUAAAUACAGCCCUGGGGUGGUCAGAGAGGCCCAUGCCACCCGUCCCCACUUGUGACAUCCCCUUCGACCACCAGUGGAAUUCUCGGGUGCCAA` is recorded as 0.389.
For `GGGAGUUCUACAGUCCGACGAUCGUGUAGCUGAGUAACAUCUUUUAGCUGACUAUAAAUCACUUUGUUUUUAAACAAGAAAAGCUGUGCUCUUUUAUGUGAUGCCUUUUUUAUUUAUUCAGGCUAUACCUACAUGGAAUUCUCGGGUGCCAA`, “RBNS enrichment (R)” read 0.363.
`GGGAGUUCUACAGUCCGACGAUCUCCAGCUCAGUCCACUGGAAUUGUAUUAGGUUUUGUUUUUUUUUGUUUAUUCCCUUUUCACUGGUCCCGUUCGUGAAUGAGUGAAUAUAAGAAGCCUGUCAGUAUUGCCAUGGAAUUCUCGGGUGCCAA`: “RBNS enrichment (R)” 0.922.
`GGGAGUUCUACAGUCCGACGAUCCUCAGGUGCAGCCAUGACUCCCCACUCUGUGCAUUCCACCUUCCAGUUGUUUUUCUCUGAGGGGGUAGUGGGGGGGUCAGCAUGAUUAUAUUUUAAUGUAGAAAAUGUGAUGGAAUUCUCGGGUGCCAA`: “RBNS enrichment (R)” 1.53.
Under “RBNS enrichment (R)”, `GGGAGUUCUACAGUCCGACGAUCUGUGGCCUGGAGUCGAGGUCUUGGCCAGGACAUAACAAGCUGUGGUCUGGGGUAACAGCCUCUUCCCAGCACCCACCUGCCAGCCCUGCUUGCCUGGCCCUGUCCUGGACUGGAAUUCUCGGGUGCCAA` is recorded as 0.454.
`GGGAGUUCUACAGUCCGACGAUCUAAUCUGGGCCUAAGCUAGUGAGAGUAUGGAACAAUGGCCCAUAAGGACUCCUAAGCGCCGAAGCCAAGGAGCCUCCUCCCUUCCUGGUUCACCCCGCCCAAGGGACCUGUGGAAUUCUCGGGUGCCAA`: “RBNS enrichment (R)” 0.518.
`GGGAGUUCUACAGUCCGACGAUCUCAAGGGCAUGAGCGGUGGAUACAGAAGUAGACAUUUUAACAAGAAGAUGAAUGGCGUCUGUGGGUUGCUAACUGAACUUUGAAGACCCGCUGCAAAACGCGCAGAUGUGUGGAAUUCUCGGGUGCCAA`: “RBNS enrichment (R)” 1.28.
Under “RBNS enrichment (R)”, `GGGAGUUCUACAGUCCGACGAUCCCUCUCUAGUCAAAGUGGUAUUACAGACAUUCAGUGACAAUGAAUCAGUGUUAAUUCUAAAUCCUUGAUCCUCUGCAAUGUGCUUGAAAACACAAACCUUUUGGGUUAAAUGGAAUUCUCGGGUGCCAA` is recorded as 0.385.
